Measurements of several laboratories.
± gives the spread as reported.
Genome polyprotein NS3 helicase domain: Genome polyprotein, NS3 helicase domain (Hepatitis C virus genotype 1b, UniProt Q9WMX2)
Glutamate receptor 2: Glutamate receptor 2 (Homo sapiens, UniProt P42262)
Chain of UniProt P42262 (whole entry, looked up): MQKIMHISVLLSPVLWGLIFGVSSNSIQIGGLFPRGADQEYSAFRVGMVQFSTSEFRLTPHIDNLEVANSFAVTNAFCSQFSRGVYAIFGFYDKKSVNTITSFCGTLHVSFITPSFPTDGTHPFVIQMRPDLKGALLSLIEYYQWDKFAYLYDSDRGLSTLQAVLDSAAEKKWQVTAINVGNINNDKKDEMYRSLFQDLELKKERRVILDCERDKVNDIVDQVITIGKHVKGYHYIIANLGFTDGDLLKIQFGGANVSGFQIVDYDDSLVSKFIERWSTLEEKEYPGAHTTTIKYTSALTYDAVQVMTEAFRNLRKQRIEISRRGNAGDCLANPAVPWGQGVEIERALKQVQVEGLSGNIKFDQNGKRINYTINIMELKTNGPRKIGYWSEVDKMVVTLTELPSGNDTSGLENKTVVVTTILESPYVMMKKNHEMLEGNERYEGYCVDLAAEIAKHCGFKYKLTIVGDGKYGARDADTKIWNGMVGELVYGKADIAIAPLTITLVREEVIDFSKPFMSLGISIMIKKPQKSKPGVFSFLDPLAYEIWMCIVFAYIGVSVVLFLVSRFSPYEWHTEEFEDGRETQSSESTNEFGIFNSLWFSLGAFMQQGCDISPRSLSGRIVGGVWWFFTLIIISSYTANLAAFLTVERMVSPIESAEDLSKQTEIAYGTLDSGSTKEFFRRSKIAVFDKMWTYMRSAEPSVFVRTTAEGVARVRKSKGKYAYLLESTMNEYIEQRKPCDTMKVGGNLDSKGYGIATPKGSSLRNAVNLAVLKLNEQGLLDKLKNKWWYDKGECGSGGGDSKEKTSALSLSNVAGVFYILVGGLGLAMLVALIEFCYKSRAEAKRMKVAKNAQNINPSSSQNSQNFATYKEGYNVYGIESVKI
Chain of UniProt P19801 (whole entry, looked up): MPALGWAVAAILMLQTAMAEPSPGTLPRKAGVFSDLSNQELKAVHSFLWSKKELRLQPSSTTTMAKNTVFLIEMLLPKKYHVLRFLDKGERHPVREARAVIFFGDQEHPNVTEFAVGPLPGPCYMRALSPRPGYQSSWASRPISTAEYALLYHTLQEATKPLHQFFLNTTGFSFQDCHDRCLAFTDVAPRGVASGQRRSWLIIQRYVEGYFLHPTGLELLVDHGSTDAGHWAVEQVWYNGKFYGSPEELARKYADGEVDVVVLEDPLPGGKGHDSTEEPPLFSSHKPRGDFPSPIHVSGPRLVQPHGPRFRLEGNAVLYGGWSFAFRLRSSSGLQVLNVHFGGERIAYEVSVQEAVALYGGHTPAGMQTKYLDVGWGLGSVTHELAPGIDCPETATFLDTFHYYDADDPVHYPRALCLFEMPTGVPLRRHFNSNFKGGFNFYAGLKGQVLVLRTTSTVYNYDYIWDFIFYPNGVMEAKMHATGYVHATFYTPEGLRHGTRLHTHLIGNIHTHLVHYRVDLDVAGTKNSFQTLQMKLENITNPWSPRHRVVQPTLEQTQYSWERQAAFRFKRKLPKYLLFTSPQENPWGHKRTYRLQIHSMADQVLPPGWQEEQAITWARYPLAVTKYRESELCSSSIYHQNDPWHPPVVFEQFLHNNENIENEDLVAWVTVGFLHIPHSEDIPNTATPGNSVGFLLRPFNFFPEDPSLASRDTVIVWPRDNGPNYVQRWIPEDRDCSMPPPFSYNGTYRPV
Chain of UniProt P25101 (whole entry, looked up): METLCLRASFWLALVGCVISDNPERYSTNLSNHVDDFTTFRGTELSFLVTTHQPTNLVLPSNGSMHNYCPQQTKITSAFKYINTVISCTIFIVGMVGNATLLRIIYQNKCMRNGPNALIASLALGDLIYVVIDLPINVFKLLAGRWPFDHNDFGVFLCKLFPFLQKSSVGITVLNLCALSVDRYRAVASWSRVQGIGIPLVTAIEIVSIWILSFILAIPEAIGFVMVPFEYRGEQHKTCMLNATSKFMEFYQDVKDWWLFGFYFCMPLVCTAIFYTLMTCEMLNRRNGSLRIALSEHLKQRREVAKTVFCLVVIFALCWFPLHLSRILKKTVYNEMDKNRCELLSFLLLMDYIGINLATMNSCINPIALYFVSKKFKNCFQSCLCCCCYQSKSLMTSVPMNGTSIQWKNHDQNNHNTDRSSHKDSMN

| SMILES | target | test | test system | setting | inhibition [%] |
| --- | --- | --- | --- | --- | --- |
| N.N.N.Nc1ncnc2c1ncn2C1OC(COP(=O)(O)OP(=O)(O)OP(=O)(O)OP(=O)(O)OC[C@H]2O[C@@H](n3cnc4c(N)ncnc43)C(O)C2O)[C@@H](O)C1O (stereo in doubt) | Genome polyprotein NS3 helicase domain | DNA binding, inhibitor | hepatitis C virus | 100 µM, with: Cy5-dT15 DNA | 3 |
| C[C@H]1c2nc3ccccc3c(-c3ccccc3)c2[C@H]2C[C@@H]1N(Cc1ccccc1)C[C@]2(C)O | OPRK1 (Cavia porcellus, UniProt P41144) | binding, radioligand binding | guinea pig brain | 1 µM, with: [3H]U-69,593 | 0 |
| CN1CCN(c2cc(-c3ccncc3)c(-c3ccc4ccccc4c3)nn2)CC1 | EDNRA (Homo sapiens, UniProt P25101) | antagonist, FLIPR | – | 10 µM | -26 |
| Nc1nc(Cl)nc2c1ncn2[C@@H]1O[C@H](COP(=O)(O)OP(=O)(O)OP(=O)(O)O)[C@@H](O)[C@H]1O | Genome polyprotein NS3 helicase domain | DNA binding, inhibitor | hepatitis C virus | 100 µM, with: Cy5-dT15 DNA | 37 |
| COc1cc2ncnc(Nc3ccc(Oc4ccccc4)cc3C)c2cc1OC | Protein kinase C beta type, isoform beta-II (PRKCB, Homo sapiens, UniProt P05771) | kinase activity, inhibitor | – | 1 µM | 6 |
| Nc1c(Br)cc(Br)cc1CN[C@H]1CC[C@H](O)CC1 | Glutamate receptor 2 | ion current, negative allosteric modulator, SyncroPatch patch clamp | HEK293 | 3 µM | 8 |
| c1cncc(OC[C@@H]2CN(CCN3CCc4ccccc43)CCO2)c1 | DRD3 (Homo sapiens, UniProt P35462) | radioligand binding | – | concentration not given, with: [3H]N-methylspiperone | 26.9 |
| Cn1cc(-n2cnc3c(NCc4nc5cc(Cl)c(Cl)cc5[nH]4)nc(N4CCOCC4)nc32)cn1 | Cyclin-dependent kinase 12, with cyclin K (CDK12, Homo sapiens, UniProt Q9NYV4) | kinase activity, inhibitor, ADP-Glo | – | 0.0082 µM | 14.8 |
| Oc1cc2c(cc1O)C(CCc1ccccc1)NCC2 (stereo not drawn) | tyrosinase | enzyme activity, inhibitor | – | 100 µM, with: levodopa | 23.5 ± 0.47 |
| CC(C)NC[C@H](O)c1ccc(O)c(O)c1.O=C(O)C(O)C(O)C(=O)O | Genome polyprotein NS3 helicase domain | DNA binding, inhibitor | hepatitis C virus | 100 µM, with: Cy5-dT15 DNA | 3 |
| CC[C@H](C)[C@@H]1NC(=O)[C@H](CCCNC(=N)N)NC(=O)[C@H](CCCNC(=N)N)NC(=O)[C@H](CCCCN)NC(=O)CNC(=O)[C@H](CCCNC(=N)N)NC(=O)[C@H]([C@@H](C)O)NC(=O)[C@H](CCCNC(=N)N)NC(=O)[C@H](C(C)C)NC(=O)[C@H](CCCNC(=N)N)NC(=O)[C@@H]2CCCN2C(=O)[C@H]2CCCN2C(=O)[C@H](CCCNC(=N)N)NC(=O)[C@H](CCCNC(=N)N)NC1=O | human Dicer | pre-miR21 processing, denaturing gel | – | 100 nM, 90 min, 37 °C | 25 |
| CC[C@@H]1[C@H](F)C(=O)N[C@@H]1COc1nccc2cc(C(N)=O)c(OC)cc12 | EIF2AK4 (Homo sapiens, UniProt Q9P2K8) | ATP-site probe binding, ActivX profiling, measured: GCN2 | THP-1 cell lysate | 0.01 mM, Lys1 site | -4.6 |
| Cn1c(=O)c2[nH]cnc2n(C)c1=O | Glutamate receptor 2 | ion current, negative allosteric modulator, SyncroPatch patch clamp | HEK293 | 30 µM | 0 |
| NC/C(=C\F)COc1cccc(Cn2c(=S)[nH]c(=O)c3[nH]cnc32)c1 | AOC1 (Homo sapiens, UniProt P19801) | enzyme activity, inhibitor | – | 30 µM | 56.7 |
| CC(C)(C)c1cc(/C=C(\C#N)C(N)=S)cc(C(C)(C)C)c1O | Genome polyprotein NS3 helicase domain | DNA binding, inhibitor | hepatitis C virus | 100 µM, with: Cy5-dT15 DNA | 5 |
| C[C@]1(O)C[C@@H](c2nc(-c3ccc4ccc(-c5ccccc5)nc4c3)c3c(N)nccn32)C1 | IGF1R (Homo sapiens, UniProt P08069) | inhibitor, radiometric phosphocellulose | – | 10 µM, with: ATP 0.2 mM | ~98 |
| CCCn1c(=O)c2[nH]c(C3CCCC3)nc2n(CCC)c1=O | Genome polyprotein NS3 helicase domain | DNA binding, inhibitor | hepatitis C virus | 100 µM, with: Cy5-dT15 DNA | 0 |
| CCN(Cc1ccccc1C(F)(F)F)C(=O)C1CCN(S(=O)(=O)c2ccc3[nH]ncc3c2)CC1 | human KATP potassium channel | radioligand binding | – | 10 µM | 5 |

For quick reference, copied from above:
| SMILES | target | test | test system | setting | inhibition [%] |
| --- | --- | --- | --- | --- | --- |
| N.N.N.Nc1ncnc2c1ncn2C1OC(COP(=O)(O)OP(=O)(O)OP(=O)(O)OP(=O)(O)OC[C@H]2O[C@@H](n3cnc4c(N)ncnc43)C(O)C2O)[C@@H](O)C1O (stereo in doubt) | Genome polyprotein NS3 helicase domain | DNA binding, inhibitor | hepatitis C virus | 100 µM, with: Cy5-dT15 DNA | 3 |
| Nc1c(Br)cc(Br)cc1CN[C@H]1CC[C@H](O)CC1 | Glutamate receptor 2 | ion current, negative allosteric modulator, SyncroPatch patch clamp | HEK293 | 3 µM | 8 |
